# Published values collected from several papers.
# Numbered parts are unrelated; each lists some results of a single study. Substitutions count along the parent as printed.

# Series 1
# Target: CCNF, cyclin fold, Cln2 fusion (human)
# Technique: yeast growth competition, sequencing
# Medium: yeast
# Setting: strong parent motif
# Baseline: not given
# Reading: higher = stronger binding
# Parent: CDKN1C docking peptide (human); TSACRSLFGPVDH
Substitution,normalised enrichment score
TAACRSLFGPVDH [S2A],5.71
ASACRSLFGPVDH [T1A],6.26
TSACRSLFAPVDH [G9A],5.22
TSACRSLLGPVDH [F8L],0.618
TSACKSLFGPVDH [R5K],2.73
TSACRSLAGPVDH [F8A],0.411
TSACRSLFGPADH [V11A],6.11
TSAARSLFGPVDH [C4A],4.02
TSACASAFGPVDH [R5A L7A],-0.412

# Series 2
# Target: UBE2J2 UBC core domain (UniProt Q8N2K1)
# Technique: yeast two-hybrid
# Medium: yeast
# Setting: mostly zero background
# Baseline: not given
# Reading: higher = stronger interaction
# B1: PHF21A RING domain (UniProt Q96BD5); chain SPTSTDGDIHEDFCSVCRKSGQLLMCDTCSRVYHLDCLDPPLKTIPKGMWICPRCQDQMLKKEEAIPW
# B2: IRF2BPL RING domain (UniProt Q9H1B7); chain SPMANSGPLCCTICHERLEDTHFVQCPSVPSHKFCFPCSRESIKAQGATGEVYCPSGEKCPLVGSNVP
# B3: UHRF2 RING domain (UniProt Q96PU4); chain CGGDPEKKCHSCSCRVCGGKHEPNMQLLCDECNVAYHIYCLNPPLDKVPEEEYWYCPSCKTDSSEVVKAGER
# B4: TRIM69 RING domain (UniProt Q86WT6); chain VIQDITMELHCPLCNDWFRDPLMLSCGHNFCEACIQDFWRLQAKETFCPECKMLCQYNNCTF
# B5: ARK2C RING domain (UniProt Q6ZSG1); chain EGEESDTDEKCTICLSMLEDGEDVRRLPCMHLFHQLCVDQWLAMSKKCPICRVDIETQLGAD
# Construct (chain): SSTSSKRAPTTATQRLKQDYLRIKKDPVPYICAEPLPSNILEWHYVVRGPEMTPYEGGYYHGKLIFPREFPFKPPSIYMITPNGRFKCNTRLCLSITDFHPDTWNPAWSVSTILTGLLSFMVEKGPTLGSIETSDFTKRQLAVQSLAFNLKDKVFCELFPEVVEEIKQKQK
Sequence,lacZ reporter activity
FPEHFVKSISCQICEHILADPVETNCKHVFCRVCILRCLKVMGSYCPSCRYPCFPTDLES (RAG1 RING domain (UniProt P15918)),0
B1 (PHF21A RING domain),0
B2 (IRF2BPL RING domain),12500
VTLSLTLPITCHICLGKVRQPVICINNHVFCSICIDLWLKNNSQCPACRVPITPENPCK (OBI1 RING domain (UniProt Q5W0B1)),0
QLRRLQEERTCKVCMDKEVSIVFIPCGHLVVCKDCAPSLRKCPICRSTIKGTVRTF (BIRC3 RING domain (UniProt Q13489)),12300
B3 (UHRF2 RING domain),0
B4 (TRIM69 RING domain),0
QLQDIKEQTMCPVCLDRLKNMIFLCGHGTCQLCGDRMSECPICRKAIERRILLY (MIB1 RING domain (UniProt Q86YT6)),0
DAIPSLSECQCGICMEILVEPVTLPCNHTLCKPCFQSTVEKASLCCPFCRRRVSSWTRYH (RNF168 RING domain (UniProt Q8IYW5)),0
B5 (ARK2C RING domain),0
QHHELTSLFECPVCFDYVLPPILQCQAGHLVCNQCRQKLSCCPTCRGALTPSIRNL (SIAH2 RING domain (UniProt O43255)),0

# Series 3
# Target: Fragile X messenger ribonucleoprotein 1, C-terminal low-complexity region (Fmr1, Mus musculus, UniProt P35922)
# Technique: RNA Bind-n-Seq
# Molecule type: RNA
# Medium: in vitro
# Tested at: 200 nM
# Setting: whole 134-nt RNA, ends assumed
# With: 150 mM KCl
# Baseline: input library
# Reading: higher = stronger binding
Oligonucleotide,log2 enrichment
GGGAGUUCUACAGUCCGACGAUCGCAGGAAGUAAAAACAAAUGGAAAUGCUUCGGAUAGUGGCAGGGGUGGGGGUUGCUAAGGAAAGGGUGGGAUGGGUGUGGGUAAAGAGUUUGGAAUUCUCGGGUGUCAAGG,0.207
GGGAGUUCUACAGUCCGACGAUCUUUGAAAAAGAAGAAAAAGAAAAAGAAGGGUAAGGCAUUAAAAAAGUCUUUAUAAAUUUUCUCCAAAAUAAAUGUUUGAUUUUAGCCCUAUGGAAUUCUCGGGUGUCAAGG,-1
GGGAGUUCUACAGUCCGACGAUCUAACUUUAGCGGAGGAUCUGAUGGAUAUGGCAGUGGACGUGGAUUUGGGGAUGGCUAUAAUGGGUAUGGAGGAGGACCUGGAGGUGGCAAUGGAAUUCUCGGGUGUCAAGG,0.333
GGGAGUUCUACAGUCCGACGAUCCUCAAGUCCUGUGCUACACAUCGUAUGUACCGAAUCGGGGAGGGGAGGGGAGGGAAAGUAUUAUGUUACGCCGUUCGGAUCUGCACUUCCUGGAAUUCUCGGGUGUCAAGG,1.17
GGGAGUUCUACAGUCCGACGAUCCCUGUGCUACACAUCGUAUGUACCGAAUCGGGUUUUUUUGGGAAAAAAAGGGUUUUUGGGAAAGUAUUAUGUUACGCCGUUCGGAUCUGCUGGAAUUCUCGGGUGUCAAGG,-0.906
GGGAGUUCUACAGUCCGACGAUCACCAUGCAGCUGGGCAUCUUUGGGAAGUGGGGCAAGGGGGGGAUAGGGAGGGGGGUAACACUUUGGGAACAGGUGGUCCCAGGUCGUUUCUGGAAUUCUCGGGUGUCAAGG,1.15
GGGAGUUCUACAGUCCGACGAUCUCAAGUCCUGUGCUACACAUCGUAUGUACCGAAUCGGGGAAGGGGAAGGGAAGGGAAAGUAUUAUGUUACGCCGUUCGGAUCUGCACUUCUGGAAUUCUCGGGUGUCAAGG,0.747
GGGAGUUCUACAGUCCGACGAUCACCAUGCAGGUGGGAAACUUUGGGAAGUGGGGCAAGGGGGGGAUAGGGAGGGGGGUAACACUUUGGGAACAGGUGGUCCCAGGUCGUUUCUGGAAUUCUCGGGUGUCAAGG,0.416
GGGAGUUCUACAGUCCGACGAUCGUCCUGUGCUACACAUCGUAUGUACCGAAUCGGGGCCCCCGGGCCCCCGGGCCCCCGGAAAGUAUUAUGUUACGCCGUUCGGAUCUGCACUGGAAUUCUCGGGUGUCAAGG,-0.705
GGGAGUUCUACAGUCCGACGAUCAGUCCUGUGCUACACAUCGUAUGUACCGAAUCGUGUGUGUGUGUGUGUGUGUGUGUGUAAAGUAUUAUGUUACGCCGUUCGGAUCUGCACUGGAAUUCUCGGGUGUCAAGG,0.536
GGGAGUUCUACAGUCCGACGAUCCUCAAGUCCUGUGCUACACAUCGUAUGUACCGAAUCGGGAAGGGAAGGAAGGGAAAGUAUUAUGUUACGCCGUUCGGAUCUGCACUUCCAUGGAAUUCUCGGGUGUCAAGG,0.254
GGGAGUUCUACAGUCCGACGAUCUAGGAAAACCGUCUUCAGAUACAGUCCCUAAGCCCAAGAGAGCCCCAAAACAGAAGAAAGUAGUAGAGGCUGUAAACUCUGACUCGGAUUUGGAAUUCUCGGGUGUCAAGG,0.0197
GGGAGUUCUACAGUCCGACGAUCUCCUGUGCUACACAUCGUAUGUACCGAAUCGGUUUUUUUGGUUUUUUUGGGUUUUUUUGGAAAGUAUUAUGUUACGCCGUUCGGAUCUGCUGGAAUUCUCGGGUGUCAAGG,-0.0449
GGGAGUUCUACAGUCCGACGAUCUGUGCUACACAUCGUAUGUACCGAAUCGGGGUUUUUUUGGGGAAAAAAAGGGGUUUUUGGGGAAAGUAUUAUGUUACGCCGUUCGGAUCUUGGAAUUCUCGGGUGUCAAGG,0.0844

# Series 4
# Target: Sal-like protein 4, full length isoform A (SALL4, Homo sapiens, UniProt Q9UJQ4, residues 1-1053)
# Chain of UniProt Q9UJQ4 (whole entry, looked up): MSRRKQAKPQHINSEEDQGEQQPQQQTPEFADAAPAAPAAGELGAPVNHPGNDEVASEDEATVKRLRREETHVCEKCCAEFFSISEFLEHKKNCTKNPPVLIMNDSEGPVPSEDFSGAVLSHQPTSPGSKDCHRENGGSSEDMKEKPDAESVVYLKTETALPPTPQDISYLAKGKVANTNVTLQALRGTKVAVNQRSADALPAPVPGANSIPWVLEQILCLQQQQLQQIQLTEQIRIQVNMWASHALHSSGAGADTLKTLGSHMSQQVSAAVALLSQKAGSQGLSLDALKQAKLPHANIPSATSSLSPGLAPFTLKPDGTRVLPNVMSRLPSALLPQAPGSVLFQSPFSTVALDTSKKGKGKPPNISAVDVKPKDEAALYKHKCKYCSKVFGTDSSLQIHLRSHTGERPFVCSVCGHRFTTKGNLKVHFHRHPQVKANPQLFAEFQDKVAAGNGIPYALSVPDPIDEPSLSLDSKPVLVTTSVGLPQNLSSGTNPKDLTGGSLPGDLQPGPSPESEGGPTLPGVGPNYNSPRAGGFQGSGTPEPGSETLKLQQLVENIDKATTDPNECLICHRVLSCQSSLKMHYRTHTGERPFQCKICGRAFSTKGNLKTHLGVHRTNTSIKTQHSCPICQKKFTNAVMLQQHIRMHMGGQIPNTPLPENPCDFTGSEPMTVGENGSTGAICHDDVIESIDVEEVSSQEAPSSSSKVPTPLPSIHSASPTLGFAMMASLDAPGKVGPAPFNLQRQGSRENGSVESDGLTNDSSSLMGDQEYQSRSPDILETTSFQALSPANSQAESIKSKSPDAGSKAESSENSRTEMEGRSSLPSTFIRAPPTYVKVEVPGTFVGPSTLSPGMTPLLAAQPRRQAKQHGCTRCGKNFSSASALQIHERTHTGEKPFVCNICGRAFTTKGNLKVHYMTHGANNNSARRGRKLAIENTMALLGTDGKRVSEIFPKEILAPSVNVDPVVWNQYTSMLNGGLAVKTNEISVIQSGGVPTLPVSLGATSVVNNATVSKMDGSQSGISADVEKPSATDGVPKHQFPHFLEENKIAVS
# Technique: universal PBM
# Molecule type: double-stranded DNA, one strand shown
# Medium: in vitro
# Tested at: 600 nM
# Setting: 8-mer, flanks averaged, mean of replicates
# Reading: higher = stronger binding
Oligonucleotide,E-score
CGATTGAC,0.101
ACTAGTGC,-0.179
CAATTACG,0.161
CAAAATGA,0.226
ACCACAAC,0.0957
AAAGAGTC,-0.152
CGCTGGGC,-0.289
AAGAAACC,-0.0764
ACGCTAAG,-0.142
GTGGCCAA,-0.225
ATGGTTGC,-0.151
CTCTCGTA,0.0147
TGGCCCCA,-0.353
CGCGCTTA,-0.162
AATCGGAA,0.0729
GCTAACCC,-0.287
CGTAATAA,0.397
CCTCACGC,-0.13
ATCCCGCG,-0.139
AAGCTGCC,-0.21
TCCTACGA,-0.181
TCTTGGCA,0.0344
CGTGCAGA,-0.078
CAGCGCAA,-0.125
AGAATGCG,-0.057

# Series 5
# Target: Histone acetyltransferase KAT6A, winged helix 2, GST fusion (KAT6A, Homo sapiens, UniProt Q92794, residues 85-181)
# Technique: protein binding microarray
# Molecule type: double-stranded DNA, one strand shown
# Medium: in vitro
# Tested at: not given
# Setting: 8-mer, flanks averaged, mean of 2 arrays, mostly near background
# Baseline: not given
# Reading: higher = stronger binding
# Residues (chain): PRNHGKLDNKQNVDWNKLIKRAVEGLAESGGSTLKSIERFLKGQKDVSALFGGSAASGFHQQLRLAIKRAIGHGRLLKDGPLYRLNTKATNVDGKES
Oligonucleotide,E-score
ATTGCCTC,0.127
ACAAGGGA,0.103
CCCAATCA,0.00427
CATGGCTC,0.0281
CAAGGCTC,-0.0766
CTGAGACA,0.00137
CAATGACA,-0.111
GTTATGTA,-0.182
CGAACCGC,0.262
CATATAGG,-0.155
CTCCCTTC,0.0164
AGTACGCC,-0.0363
CAGCTAAA,-0.00993
CAGCACTA,-0.0086
AAGTCTGC,-0.0893
CATACCCA,0.0449
GTAATGTA,-0.301
CCCCAACA,-0.0631
ACTTTCAA,0.134
CTGGGCGA,0.11
GTCAGGCA,0.0888
AAAGTATG,-0.133
GGATCGTA,-0.158
CTTCGTGC,0.183
AGTCGTTG,-0.235

# Series 6
# Target: ABI1, truncated, D143A, DHFR fusion (Arabidopsis thaliana)
# Technique: DHFR PCA, deep sequencing
# Medium: yeast
# Setting: methotrexate growth selection, single substitutions
# With: (+)-ABA 0.032 µM
# Baseline: wild-type fitted maximum
# Reading: higher = stronger binding
# Parent: PYL1, truncated, DHFR fusion (Arabidopsis thaliana); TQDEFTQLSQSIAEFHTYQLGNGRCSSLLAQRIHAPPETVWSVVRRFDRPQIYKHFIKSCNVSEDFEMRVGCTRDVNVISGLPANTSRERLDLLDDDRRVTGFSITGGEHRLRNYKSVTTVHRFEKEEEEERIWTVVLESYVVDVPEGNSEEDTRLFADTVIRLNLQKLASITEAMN; partner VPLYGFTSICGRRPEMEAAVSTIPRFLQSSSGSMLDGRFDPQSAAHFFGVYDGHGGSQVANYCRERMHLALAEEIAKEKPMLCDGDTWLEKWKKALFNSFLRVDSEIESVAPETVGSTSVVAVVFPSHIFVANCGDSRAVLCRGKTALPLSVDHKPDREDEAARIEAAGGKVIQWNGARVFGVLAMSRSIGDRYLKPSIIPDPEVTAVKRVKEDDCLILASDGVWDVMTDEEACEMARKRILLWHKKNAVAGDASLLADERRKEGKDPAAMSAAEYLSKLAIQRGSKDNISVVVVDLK
Substitution,relative binding score [%]
D3L,14
R111G,3.96
R46T,-0.49
V118M,4.61
N165A,3.65
L29I,37.1
I52P,-3.02
R46N,-15
R90Q,1.23
V161G,-5.71
E109D,86
A158K,-8.84
Y53H,7.23
R74I,-3.33
S26N,-5.19
G81F,-12.4
R113I,19.4
T39M,28
T86F,22.1
Q31S,-1.24
P146C,16.2

# For quick reference, copied from above (series 1):
Substitution,normalised enrichment score
TAACRSLFGPVDH [S2A],5.71
ASACRSLFGPVDH [T1A],6.26
TSACRSLFAPVDH [G9A],5.22
TSACRSLLGPVDH [F8L],0.618
TSACKSLFGPVDH [R5K],2.73
TSACRSLAGPVDH [F8A],0.411
TSACRSLFGPADH [V11A],6.11
TSAARSLFGPVDH [C4A],4.02
TSACASAFGPVDH [R5A L7A],-0.412
